Assay results from different studies.
Parts stem from different laboratories: compare values within a part only.

Series 1
Target: RNA binding protein fox-1 homolog 2, RRM domain, GST-SBP tag (RBFOX2, Homo sapiens, UniProt O43251-10, residues 100-194)
Technique: RNA Bind-n-Seq
Molecule type: RNA
Medium: in vitro
Concentration: 365 nM
Notes: natural RNA segment, single round, ends assumed
Reference: no-protein control
Direction: higher = stronger binding
Endpoint: RBNS enrichment (R)
GGGAGUUCUACAGUCCGACGAUCUGGUCAUUGAGUUCUUAGUGUAGUUUGCUAGAUGAUUAUUAAGAUUCUUUUGUGUCUGACACUUGUGGUGAGUUGCUUUUGAAAUCUGUUGAGAUUUCCAUGUGAGAACUUGGAAUUCUCGGGUGCCAA: 0.919
GGGAGUUCUACAGUCCGACGAUCAACACACGUGUUGGUGCUUCUGGGUAGCACUGGUUUGCAUUAGUUUAUGUUUCCAUGCCAGAGUUUGUGUGGGCGGGCGCAUGUGCACCACAGAGUGCACUCGAGGGGACUGGAAUUCUCGGGUGCCAA: 8.73
GGGAGUUCUACAGUCCGACGAUCCAGGGGACUCGCCUACUGAGAGCUGUCAUUGACUUACUGUCUAAAGCCCUGUGCUCCGUGACUCCCACGCAUGAACUCAUCAGGGCCGUGUCUACUCCUUAAUUGUCACAUGGAAUUCUCGGGUGCCAA: 3.7
GGGAGUUCUACAGUCCGACGAUCAAGCAGCCCCCAGCGAGGGUCUCCUUCGCCUUCAACCUCCUAGUGUCUGUUAGCAUCUUCCUUUUCAUGGGGGGAGGGAAGAUAAAGUGAAUUGCCCAGAGCUGCCUUUUUGGAAUUCUCGGGUGCCAA: 0.691

Series 2
Target: Phosphate system positive regulatory protein PHO4, full length, GST-tagged (PHO4, Saccharomyces cerevisiae, UniProt P07270, residues 1-312)
Technique: competition protein-binding microarray
Molecule type: double-stranded DNA, one strand shown
Medium: in vitro
Concentration: 2 µM
Notes: whole 60-bp probe, lowest competitor level
With: Cbf1 competitor, 0.05 µM
Direction: higher = stronger binding
Endpoint: fluorescence intensity
Target sequence (chain): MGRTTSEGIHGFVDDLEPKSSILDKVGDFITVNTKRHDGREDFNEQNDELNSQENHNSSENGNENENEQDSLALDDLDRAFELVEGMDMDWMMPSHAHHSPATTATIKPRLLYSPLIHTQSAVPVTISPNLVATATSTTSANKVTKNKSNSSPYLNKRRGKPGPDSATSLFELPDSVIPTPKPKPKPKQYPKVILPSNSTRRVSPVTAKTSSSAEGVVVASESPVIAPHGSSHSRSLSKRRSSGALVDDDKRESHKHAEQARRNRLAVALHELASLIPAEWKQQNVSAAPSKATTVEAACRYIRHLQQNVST
AATTGAAGTGCGAGTCACGTGCAAAGCGACGGTAGTGTCTTGATTCGCTTGACGCTGCTG: 16000 a.u.
CTTGACCACTTATTTCACGGGCTCCGTAGCGGACAAGTCTTGATTCGCTTGACGCTGCTG: 4190 a.u.
CGGGGTTAAGTTTGTACTGTGGGTGGCTTGCAGCAGGTCTTGATTCGCTTGACGCTGCTG: 4080 a.u.

Series 3
Target: Histone acetyltransferase KAT6A, both winged helices, GST fusion (KAT6A, Homo sapiens, UniProt Q92794, residues 1-181)
Technique: protein binding microarray
Molecule type: double-stranded DNA, one strand shown
Medium: in vitro
Concentration: not given
Notes: 8-mer, flanks averaged, mean of 2 arrays, mostly near background
Reference: not given
Direction: higher = stronger binding
Endpoint: E-score
Target sequence (chain): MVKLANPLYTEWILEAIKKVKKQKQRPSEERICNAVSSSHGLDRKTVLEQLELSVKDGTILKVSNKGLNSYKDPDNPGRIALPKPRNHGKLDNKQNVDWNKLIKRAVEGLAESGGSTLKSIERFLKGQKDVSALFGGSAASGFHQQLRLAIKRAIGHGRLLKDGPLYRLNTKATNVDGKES
ACGCGTAT: 0.262
CGTCAGAA: -0.00354
CTCGATAC: -0.011
ACTTCAGC: -0.0543
GATAACCC: -0.0772

Further values, each from its own experiment
PhoQ, residues 284 288 289 292 302 303 SSTLLI
fold induction (PhoP, residues 12 14 15 18 19 IFFTR (Escherichia coli, UniProt P23836); Sort-seq, refers to: YFP reporter; E. coli; PhoQ-PhoP variant library, with: 10 µM Mg2+; reference: high Mg2+ state, higher = stronger signaling): 2.49

For quick reference, copied from above (series 2):
CTTGACCACTTATTTCACGGGCTCCGTAGCGGACAAGTCTTGATTCGCTTGACGCTGCTG: 4190 a.u.
AATTGAAGTGCGAGTCACGTGCAAAGCGACGGTAGTGTCTTGATTCGCTTGACGCTGCTG: 16000 a.u.
